Results collected from several papers.
Numbered parts are unrelated; each lists some results of a single study.

Sample 1 — method: RNA Bind-n-Seq; form: RNA; matrix: in vitro; tested at: 365 nM; reference: no-protein control; reading: higher = stronger binding; endpoint: RBNS enrichment (R)
Target: RNA binding protein fox-1 homolog 2, RRM domain, GST-SBP tag (RBFOX2, Homo sapiens, UniProt O43251-10, residues 100-194)
Notes: natural RNA segment, single round, ends assumed
All sequences stand within: GGGAGUUCUACAGUCCGACGAUC … UGGAAUUCUCGGGUGCCAA
Target sequence (chain): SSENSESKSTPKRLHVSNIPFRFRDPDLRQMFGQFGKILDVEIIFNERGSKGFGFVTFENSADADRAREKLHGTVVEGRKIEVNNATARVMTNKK
UUGAAAUGAUUUAAUAAUAUGAGUGAGGAUUUGCUUUCUCCAUUAGAGCAUUAAGCUAAAACUAUCAACAUUUUAAACCAAAUUGCCUUAUUUUUCUUCCAAACUUCAUA: 0.604
CUGUCCAGGUUAGUUUACUCCUGACCACUAAUAGCAUUGUCAUUUGGGCUUUCUGUUGAAUGAAUCAACAAACCACAAUACUUCCUGGGACCUUUUGUACUUUAUUUGAA: 0.372
ACCUCUAAUUUAUUUUGUUGAAUUUUUAUUAUUUGUUUUCCCGCAAAGCGGAAAAUGUUUUAUUUUGUAAUUAUUGUGAUCUCCUGUGGCCCCAGCCUGGCCCAGCCCCC: 1.07
CUCAGCCGAUCAGGAAUCAUUGGCAGAUGCACAUGCCCUGGAACUUUCCCUUAGUUUUGUGAACUCUGCUAAUCACUGUGUCUCUAAGUUAGACUUAUUUUCUAGUGGCU: 0.423
GGAUCACUAUUACUGCUGUUGCCACUAGUGAUUCCUAGGAAAUACAUAAUUGACUUUUUCCAACAAAAUGUAUAUUAUUACAUGUUAGAUAAUAAGAACAAUUGUCCCGU: 0.244
UGUUUUUAAGGCAUUUUAAAGCUGUAGCAGGCGUAUGCUUCAUUUUCUUCCAAAGAGGCAAAAGCAGCUAGACUCGCUUACAGCACAUGCUUCGCUCCAUGGUAUGGGUG: 0.347

Sample 2 — method: aptamer microarray, sandwich; form: DNA with 2'F-ANA; matrix: in vitro; tested at: 200 nM; with: Cy3 exosite-II aptamer, 400 nM; reading: higher = stronger binding; endpoint: mean fluorescence intensity; strand: GGTTGGTGTGGTTGG
Target: Prothrombin, mature alpha-thrombin (F2, Homo sapiens, UniProt P00734)
Notes: whole 15-mer aptamer, many near background
2'F-ANA at 1 5 6 13 15: 52.9 a.u.
2'F-ANA at 2 3 5 7 8 14: 56.5 a.u.
2'F-ANA at 3 4 6 11 12 13 14 15: 261 a.u.
2'F-ANA at 6 11 12 13 14 15: 202 a.u.
2'F-ANA at 1 3 5 8 10 12 13 14 15: 49.2 a.u.
2'F-ANA at 4 8 11 12: 505 a.u.

Sample 3 — method: RNA Bind-n-Seq; form: RNA; matrix: in vitro; tested at: 20 nM; notes: 6-mer, flanks averaged, single round; with: 150 mM KCl; reference: input library; reading: higher = stronger binding; endpoint: 6-mer enrichment (R)
Target: TAR DNA-binding protein 43, full length, His tag (TARDBP, Homo sapiens, UniProt Q13148, residues 1-414)
AGGUGU: 1.4
GUAUGC: 1.1
UCCUUC: 0.549
UUUACA: 0.591
UCCGAG: 0.847
GACUGU: 0.901

Mixed results
PhoQ, residues 284 288 289 292 302 303 SCKMEA — fold induction (PhoP, residues 12 14 15 18 19 LHSVW (Escherichia coli, UniProt P23836); Sort-seq, item: YFP reporter; E. coli; PhoQ-PhoP variant library, with: 10 µM Mg2+; reference: high Mg2+ state, higher = stronger signaling): 12.8
